Assay results of several laboratories.
Lines come from different studies, so protocols differ. ± gives the spread as reported.
Organism: Escherichia coli

SMILES	assay	system	conditions	how to read	MIC
CC[C@H](C)[C@H](NC(=O)[C@H](CC(C)C)NC(=O)[C@H](CCCNC(=N)N)NC(=O)[C@@H](N)CCCNC(=N)N)C(=O)N[C@@H](CCCNC(=N)N)C(=O)N[C@@H](CCCCN)C(=O)N[C@@H](CC(C)C)C(=O)N[C@@H](CCCCN)C(=O)NCC(=O)N1CCC[C@H]1C(=O)N[C@H](C(=O)N[C@H](C(=O)N[C@@H](Cc1ccc(O)cc1)C(=O)N[C@@H](CC(C)C)C(=O)N[C@@H](Cc1ccc(O)cc1)C(=O)N[C@@H](Cc1ccccc1)C(=O)N[C@@H](CCCCN)C(=O)N[C@@H](CC(C)C)C(=O)N[C@@H](CCC(N)=O)C(=O)N[C@@H](CC(C)C)C(=O)N[C@@H](CC(C)C)C(=O)N[C@@H](CCCCN)C(=O)N[C@@H](CCCCN)C(N)=O)[C@@H](C)CC)[C@@H](C)CC	broth microdilution	KCTC 1682, Mueller-Hinton broth	24 h, 37 °C	–	32 µM
CC[C@H](C)[C@H](NC(=O)CN)C(=O)NCC(=O)N[C@@H](C)C(=O)N[C@H](C(=O)N[C@@H](CC(C)C)C(=O)N[C@@H](CCCCN)C(=O)N[C@H](C(=O)N[C@@H](CC(C)C)C(=O)N[C@H](C(=O)N[C@H](C(=O)NCC(=O)N[C@@H](CC(C)C)C(=O)N1CCC[C@H]1C(=O)N[C@@H](C)C(=O)N[C@@H](CC(C)C)C(=O)N[C@H](C(=O)N[C@@H](CO)C(=O)N[C@@H](Cc1c[nH]c2ccccc12)C(=O)N[C@H](C(=O)N[C@@H](CCCCN)C(=O)N[C@@H](CCCNC(=N)N)C(=O)N[C@@H](CCCCN)C(=O)N[C@@H](CCCNC(=N)N)C(=O)N[C@@H](CCC(N)=O)C(=O)N[C@@H](CCC(N)=O)C(N)=O)[C@@H](C)CC)[C@@H](C)CC)[C@@H](C)O)[C@@H](C)O)C(C)C)C(C)C	–	K1 ATCC 700973	16 h, 37 °C, Mueller-Hinton broth	–	8 µM
CC[C@H](C)[C@H](N)C(=O)N[C@@H](CC(C)C)C(=O)NCC(=O)N[C@H](CCCNC(=N)N)C(=O)N[C@H](C(=O)N[C@H](C(=O)N[C@@H](CCCCN)C(=O)NCC(=O)N[C@H](C(=O)N[C@@H](CCCCN)C(=O)N[C@@H](CC(=O)O)C(=O)N[C@H](C(=O)N[C@@H](CC(C)C)C(N)=O)[C@@H](C)CC)[C@@H](C)CC)C(C)C)[C@@H](C)CC	broth microdilution	ATCC 25922, Mueller-Hinton broth	16 h, 37 °C	–	25 µM
CC[C@H](C)[C@H](NC(=O)[C@H](CCCNC(=N)N)NC(=O)[C@H](Cc1ccc(O)cc1)NC(=O)CNC(=O)[C@H](Cc1ccc(O)cc1)NC(=O)[C@H](CCCNC(=N)N)NC(=O)[C@H](CC(C)C)NC(=O)[C@H](C)NC(=O)[C@H](CCC(N)=O)NC(=O)[C@H](CCC(=O)O)NC(=O)[C@@H](NC(=O)[C@H](CCC(N)=O)NC(=O)[C@H](CCCNC(=N)N)NC(=O)[C@H](CCSC)NC(=O)[C@H](Cc1ccc(O)cc1)NC(=O)[C@H](CCC(N)=O)NC(=O)[C@@H](N)CCCNC(=N)N)[C@@H](C)CC)C(=O)N[C@@H](CO)C(=O)N[C@@H](CCCNC(=N)N)C(=O)N[C@@H](CCCNC(=N)N)C(N)=O	broth dilution	K12 BW25113	18 h, 37 °C	–	5.9 µM
Cc1cc(C#N)ccc1C(=O)Nc1ccc(C(=O)N[C@@H](CC(N)=O)C(=O)Nc2ccc(C(=O)Nc3ccc(C(=O)Nc4ccc(C(=O)O)cc4)c(O)c3OC(C)C)cc2)cc1	–	K12 ΔtolC	–	–	0.03 µg/mL
OCC(S)CS (centres unmarked)	–	NDM-1 producing	compound alone	–	> 2000 µM
CC[C@H](C)[C@H](NC(=O)[C@H](CCCNC(=N)N)NC(=O)[C@H](CCC(N)=O)NC(=O)[C@@H](NC(=O)[C@@H](NC(=O)[C@H](CCCNC(=N)N)NC(=O)[C@@H](N)CCCCN)[C@@H](C)CC)C(C)C)C(=O)N[C@@H](CCCCN)C(=O)N[C@@H](CC(=O)O)C(=O)N[C@@H](Cc1ccccc1)C(=O)N[C@@H](CC(C)C)C(=O)N[C@@H](CCCNC(=N)N)C(N)=O	broth microdilution	K12	16 h, 37 °C	–	64 ± 22 µM
CC[C@H](C)[C@H](NC(=O)CNC(=O)[C@H](CC(=O)O)NC(=O)[C@H](CCCNC(=N)N)NC(=O)[C@@H](NC(=O)[C@H](CC(N)=O)NC(=O)[C@H](CCCNC(=N)N)NC(=O)CNC(=O)[C@@H](NC(=O)[C@H](CCCCN)NC(=O)[C@H](CCCNC(=N)N)NC(=O)[C@@H](NC(=O)[C@H](CCCCN)NC(=O)[C@H](CCCCN)NC(=O)[C@H](Cc1ccccc1)NC(=O)[C@@H](NC(=O)[C@H](CCCCN)NC(=O)[C@H](Cc1c[nH]c2ccccc12)NC(=O)[C@@H](N)CCCNC(=N)N)[C@@H](C)CC)[C@@H](C)CC)C(C)C)C(C)C)C(=O)N[C@H](C(=O)N[C@@H](CCCCN)C(=O)N[C@@H](C)C(=O)NCC(=O)N1CCC[C@H]1C(=O)N[C@@H](C)C(=O)N[C@H](C(=O)N[C@@H](C)C(=O)N[C@H](C(=O)N[C@H](C(=O)NCC(=O)N[C@@H](CCC(N)=O)C(=O)N[C@@H](C)C(=O)N[C@@H](C)C(=O)N[C@H](C(=O)N[C@H](C(=O)N[C@H](C(=O)N[C@@H](CCCCN)C(N)=O)C(C)C)C(C)C)[C@@H](C)O)C(C)C)C(C)C)C(C)C)[C@@H](C)CC	–	KCTC 1682, Mueller-Hinton broth	16 h, 37 °C	growth inhibition over 99%	2 µM
CC[C@H](C)[C@H](NC(=O)[C@H](CO)NC(=O)CNC(=O)[C@H](CCCCN)NC(=O)[C@@H](NC(=O)[C@H](CC(N)=O)NC(=O)[C@H](Cc1ccccc1)NC(=O)[C@H](CC(N)=O)NC(=O)[C@@H](NC(=O)[C@H](CCCNC(=N)N)NC(=O)[C@@H]1CCCN1C(=O)[C@H](CCCNC(=N)N)NC(=O)[C@@H](NC(=O)[C@H](CCCNC(=N)N)NC(=O)[C@H](CCCNC(=N)N)NC(=O)[C@@H](NC(=O)[C@H](CCCNC(=N)N)NC(=O)[C@H](CO)NC(=O)[C@H](CC(C)C)NC(=O)[C@H](Cc1ccccc1)NC(=O)[C@H](CCCNC(=N)N)NC(=O)CNC(=O)[C@H](Cc1ccccc1)NC(=O)[C@H](CCCNC(=N)N)NC(=O)CNC(=O)[C@H](CCCNC(=N)N)NC(=O)[C@H](CCC(N)=O)NC(=O)[C@@H](NC(=O)[C@@H](N)CC(C)C)C(C)C)[C@@H](C)CC)[C@@H](C)CC)[C@@H](C)CC)[C@@H](C)CC)C(=O)O	broth microdilution	ATCC 25922, Mueller-Hinton broth	16 to 20 h, 37 °C	–	2.49 µM
CC[C@H](C)[C@H](NC(=O)CN)C(=O)N[C@@H](CC(C)C)C(=O)N[C@@H](C)C(=O)N[C@@H](C)C(=O)N[C@H](C(=O)N[C@@H](CCCCN)C(=O)N[C@@H](C)C(=O)N[C@H](C(=O)N[C@@H](C)C(=O)N[C@@H](CCCCN)C(=O)N[C@@H](C)C(=O)N[C@@H](C)C(=O)NCC(N)=O)[C@@H](C)CC)[C@@H](C)CC	–	ATCC 25922, Mueller-Hinton broth	12 h, 37 °C	–	64 µg/mL
CC[C@H](C)[C@H](NC(=O)[C@H](CC(C)C)NC(=O)[C@@H](NC(=O)[C@H](CCCNC(=N)N)NC(=O)[C@H](CCCNC(=N)N)NC(=O)[C@H](CCCNC(=N)N)NC(=O)[C@@H](N)CCCNC(=N)N)[C@@H](C)CC)C(=O)N[C@@H](CCCCN)C(=O)N[C@@H](CCCCN)C(=O)N[C@H](C(=O)N[C@@H](CC(C)C)C(=O)N[C@@H](CCCCN)C(=O)N[C@@H](CC(C)C)C(=O)N[C@@H](CCCCN)C(=O)N[C@@H](CO)C(=O)N[C@@H](CO)C(=O)N[C@@H](C)C(=O)N[C@@H](Cc1ccc(O)cc1)C(N)=O)C(C)C	checkerboard	–	24 h, 37 °C, alone, azithromycin plate	–	64 µM
CC1(C)SC2C(NC(=O)C(NC(=O)C3=C(O)C(Cc4ccsc4)NC3=O)c3ccccc3)C(=O)N2C1C(=O)O (centres unmarked)	broth microdilution	isolate IU 356 A, KPC-3, VIM-1, TEM	no clavulanic acid	–	> 200 µg/mL
COc1ccc(CC2NCCc3cc(OC)c(OC)cc32)cc1OC.Cl (centres unmarked)	–	–	24 h, 37 °C	–	> 1600 µM
CC1(C)S[C@@H]2[C@H](NC(=O)C(C(=O)O)c3ccccc3)C(=O)N2[C@H]1C(=O)O (some centres unmarked)	broth microdilution	Keio mutant JW0146-2	18 h, ferric hydroxamate uptake gene	–	12.5 µg/mL
COc1c(N2CC3CCCNC3C2)c(F)cc2c(=O)c(C(=O)OCc3cnc([N+](=O)[O-])s3)cn(C3CC3)c12 (centres unmarked)	–	NR 51487, fluoroquinolone-resistant	–	–	> 97 µM
CCCCCCC/C=C/C(=O)N1C(=O)/C(=C(\O)c2ccc(OCOCCOC)cc2)C(=O)C1CC(C)C (centres unmarked)	–	K12 ΔtolC	–	–	3.13 µg/mL
CC[C@H](C)[C@H](NC(=O)[C@H](CC(C)C)NC(=O)[C@H](CCCNC(=N)N)NC(=O)[C@@H](N)CCCNC(=N)N)C(=O)N[C@@H](CC(C)C)C(=O)N[C@H](C(=O)N[C@@H](CCCCN)C(=O)N[C@H](C(=O)NCC(=O)N1CCC[C@H]1C(=O)N[C@H](C(=O)N[C@H](C(=O)N[C@@H](Cc1ccc(O)cc1)C(=O)N[C@@H](CCCCN)C(=O)N[C@@H](Cc1ccc(O)cc1)C(=O)N[C@@H](Cc1ccccc1)C(=O)N[C@@H](CCCCN)C(=O)N[C@@H](CCCCN)C(=O)N[C@@H](CCC(N)=O)C(=O)N[C@@H](CC(C)C)C(=O)N[C@@H](CC(C)C)C(=O)N[C@@H](CCCCN)C(=O)N[C@@H](CC(C)C)C(N)=O)[C@@H](C)CC)[C@@H](C)CC)[C@@H](C)O)[C@@H](C)O	broth microdilution	KCTC 1682, Mueller-Hinton broth	24 h, 37 °C	–	4 µM
N=C(N)NCCC[C@H](NC(=O)CCCCCNC(=O)[C@H](CCCNC(=N)N)NC(=O)[C@H](CCCNC(=N)N)NC(=O)CCCCCNC(=O)[C@H](CCCNC(=N)N)NC(=O)[C@H](CCCNC(=N)N)NC(=O)CCCCCNC(=O)[C@H](CCCNC(=N)N)NC(=O)[C@H](CCCNC(=N)N)NC(=O)CCCCCNC(=O)[C@@H](N)CCCNC(=N)N)C(=O)NCCCCCC(=O)NCCC(=O)O	–	ATCC 25922	1 h, 37 °C, after 50% human serum	–	> 192 µM
CO/N=C(\C(=O)N[C@@H]1C(=O)N2C(C(=O)O)=C(COC(C)=O)CS[C@H]12)c1csc(N)n1	–	BL21(DE3) wild type	–	–	< 1.75 µg/mL
CC(C)(O/N=C(\C(=O)N[C@@H]1C(=O)N2C(C(=O)[O-])=C(C[n+]3ccccc3)CS[C@H]12)c1csc(N)n1)C(=O)O	–	DH5a with empty vector	–	–	0.5 µg/mL

Some of these lines once more:
SMILES	assay	system	conditions	how to read	MIC
CC[C@H](C)[C@H](NC(=O)CN)C(=O)N[C@@H](CC(C)C)C(=O)N[C@@H](C)C(=O)N[C@@H](C)C(=O)N[C@H](C(=O)N[C@@H](CCCCN)C(=O)N[C@@H](C)C(=O)N[C@H](C(=O)N[C@@H](C)C(=O)N[C@@H](CCCCN)C(=O)N[C@@H](C)C(=O)N[C@@H](C)C(=O)NCC(N)=O)[C@@H](C)CC)[C@@H](C)CC	–	ATCC 25922, Mueller-Hinton broth	12 h, 37 °C	–	64 µg/mL
CC(C)(O/N=C(\C(=O)N[C@@H]1C(=O)N2C(C(=O)[O-])=C(C[n+]3ccccc3)CS[C@H]12)c1csc(N)n1)C(=O)O	–	DH5a with empty vector	–	–	0.5 µg/mL
